Experimental data gathered from unrelated publications.
A part holds a random share of what one study measured. Substitutions count along the parent as printed.

Series 1 — target: CCNE1, cyclin fold, Cln2 fusion (human); technique: yeast growth competition, sequencing; medium: yeast; setting: strong parent motif; reference: not given; reading: higher = stronger binding
Parent: PKN2 docking peptide (human); VSAVRKLDFSDTM; partner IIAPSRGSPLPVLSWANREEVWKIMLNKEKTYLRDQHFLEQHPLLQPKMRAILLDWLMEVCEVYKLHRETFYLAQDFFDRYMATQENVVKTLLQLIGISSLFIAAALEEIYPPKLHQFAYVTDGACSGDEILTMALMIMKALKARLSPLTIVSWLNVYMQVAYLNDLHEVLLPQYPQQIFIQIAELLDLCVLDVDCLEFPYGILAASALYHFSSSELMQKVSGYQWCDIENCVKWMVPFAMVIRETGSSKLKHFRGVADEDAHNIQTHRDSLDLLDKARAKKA
| Substitution | normalised enrichment score |
| --- | --- |
| L7K | -0.0803 |
| L7H | 0.189 |
| R5V | 0.621 |
| D8K | 3.78 |
| F9E | 0.0738 |
| L7D | -0.0812 |
| D11S | 5.16 |
| L7M | 0.291 |
| D8V | 5.1 |

Series 2 — technique: competition protein-binding microarray; molecule type: double-stranded DNA, one strand shown; medium: in vitro; tested at: 2 µM; with: Cbf1 competitor, 0.05 µM; reading: higher = stronger binding
Target: Phosphate system positive regulatory protein PHO4, full length, GST-tagged (PHO4, Saccharomyces cerevisiae, UniProt P07270, residues 1-312)
Setting: whole 60-bp probe, lowest competitor level
Residues (chain): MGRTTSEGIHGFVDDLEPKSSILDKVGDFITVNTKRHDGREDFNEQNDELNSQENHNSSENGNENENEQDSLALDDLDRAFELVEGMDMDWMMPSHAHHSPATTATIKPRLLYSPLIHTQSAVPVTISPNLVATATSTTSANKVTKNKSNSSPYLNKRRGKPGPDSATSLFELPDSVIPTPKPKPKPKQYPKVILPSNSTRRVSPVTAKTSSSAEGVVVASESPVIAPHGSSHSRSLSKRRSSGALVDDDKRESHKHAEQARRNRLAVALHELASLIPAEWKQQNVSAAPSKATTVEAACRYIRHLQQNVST
| Oligonucleotide | fluorescence intensity |
| --- | --- |
| CTAATACCCGGAAGTCGCGTGATGGTTTTTTTTTTCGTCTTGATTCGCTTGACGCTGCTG | 6880 a.u. |
| AGAGGGCATCTCAGCCATGTGTTCTCCAGCTCATTAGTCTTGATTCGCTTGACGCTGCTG | 9230 a.u. |
| AAATTACTAAGTTGAGCAGTGGGTGACGCCGTATGAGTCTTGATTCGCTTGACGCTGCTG | 3930 a.u. |
| ACAATTTCAACCATCCTCGTGTCCTTGTTGTTATCTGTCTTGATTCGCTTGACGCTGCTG | 11000 a.u. |
| TGCGCAACAACTTTTCACGTGGTTTTATGTCTAGAAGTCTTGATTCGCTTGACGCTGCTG | 12900 a.u. |
| CATACCCAACCTTGTGGGGTGGGTGAAGATATTTGTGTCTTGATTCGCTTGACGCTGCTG | 7170 a.u. |
| TGCGCAACAACTTGCTTAGTGGGTGTATGTCTAGAAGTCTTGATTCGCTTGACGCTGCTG | 4720 a.u. |
| TGCTGTGTATTAGTTATTAAATCGTCAAAACGATACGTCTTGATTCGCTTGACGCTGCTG | 4320 a.u. |
| AAAGGGCGAAGTTACACCGTTTTCAAAGGTGGAGTGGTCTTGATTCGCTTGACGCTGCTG | 3980 a.u. |

Series 3 — technique: RNA Bind-n-Seq; molecule type: RNA; medium: in vitro; tested at: 200 nM; setting: whole 134-nt RNA, ends assumed; with: 150 mM KCl; reference: input library; reading: higher = stronger binding
Target: Fragile X messenger ribonucleoprotein 1, C-terminal low-complexity region (Fmr1, Mus musculus, UniProt P35922)
| Oligonucleotide | log2 enrichment |
| --- | --- |
| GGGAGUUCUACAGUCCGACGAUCUGGCCCUGAUGGCAUGCGGGGAGGAAGAGGUGGCCUCAUGGAUCGUGGUGGUCCCGGUGGAAUGUUCAGAGGUGGCCGUGGUGGAGACAGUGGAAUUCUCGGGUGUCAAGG | -0.0444 |
| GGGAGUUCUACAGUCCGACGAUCCACAGACAACACGCACCCACACAGACUCAGAGGGAAGGGGUUGGGAUGGGGACAGGGUGCACAGCAGGGCGGGGUAGGACCCCAGCCCCUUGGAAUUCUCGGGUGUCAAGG | 1.44 |
| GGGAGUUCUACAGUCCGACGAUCUGUGCUACACAUCGUAUGUACCGAAUCGGUUUUUUUGGGGUUUUUUUGGGGUUUUUUUGGGGAAAGUAUUAUGUUACGCCGUUCGGAUCUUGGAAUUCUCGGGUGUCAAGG | -0.0456 |
| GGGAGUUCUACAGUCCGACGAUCCAAGUCCUGUGCUACACAUCGUAUGUACCGAAUCGGAAAAAGGAAAAAAAGGUGGAAAGUAUUAUGUUACGCCGUUCGGAUCUGCACUUCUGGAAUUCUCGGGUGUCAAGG | -0.84 |
| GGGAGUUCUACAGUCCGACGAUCCAAGUCCUGUGCUACACAUCGUAUGUACCGAAUCGGGGAAAGGGGAAAGGGAAAGGAAAGUAUUAUGUUACGCCGUUCGGAUCUGCACUUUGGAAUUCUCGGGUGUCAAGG | 0.113 |
| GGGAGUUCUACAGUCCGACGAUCUGCAGACGGGGAACCUGCUGAACUGGGGCCGCCUGCGGAAGAAGUGCCCGUCCACGCACAGCGAGGAGGUGAGCGUGGCGACACUCGCCGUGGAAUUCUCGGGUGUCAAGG | -2.09 |
| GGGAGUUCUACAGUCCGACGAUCCAAGUCCUGUGCUACACAUCGUAUGUACCGAAUCGGGUGGGUGGGUUUUUUUGGGAAAGUAUUAUGUUACGCCGUUCGGAUCUGCACUUCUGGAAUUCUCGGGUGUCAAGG | 1.03 |
| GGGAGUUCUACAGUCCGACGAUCCUGUGCUACACAUCGUAUGUACCGAAUCGGGGUUUUUUGGGUUUUUUGGGGUUUUUUGGGGAAAGUAUUAUGUUACGCCGUUCGGAUCUGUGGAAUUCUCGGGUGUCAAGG | -0.148 |
| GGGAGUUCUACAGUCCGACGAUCUGGCCCUGGUGGCAUGCGGGGAGGAGGAGGUGGCCUCAUGGAUCGUGGUGGUCCCGGUGGAAUGUUCAGAGGUGGCCGUGGUGGAGACAGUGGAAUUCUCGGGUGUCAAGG | 0.395 |
| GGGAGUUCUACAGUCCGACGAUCGUCCUGUGCUACACAUCGUAUGUACCGAAUCGGGCCCCCGGCCCCCGGGCCCCCGGGGAAAGUAUUAUGUUACGCCGUUCGGAUCUGCACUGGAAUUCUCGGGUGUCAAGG | -0.503 |

Mixed results
| Molecule | target | test | test system | setting | scale | endpoint | result |
| --- | --- | --- | --- | --- | --- | --- | --- |
| PhoQ, residues 284 288 289 292 302 303 AGGCYF | PhoP, residues 12 14 15 18 19 LQHIR (Escherichia coli, UniProt P23836) | Sort-seq, measured: YFP reporter | E. coli | PhoQ-PhoP variant library, with: 10 µM Mg2+ | reference: high Mg2+ state, higher = stronger signaling | fold induction | 2.59 |
